Assay results collected from several papers.
A part holds a random share of what one study measured.
Sequence of UniProt Q8TDC3 (whole entry, looked up): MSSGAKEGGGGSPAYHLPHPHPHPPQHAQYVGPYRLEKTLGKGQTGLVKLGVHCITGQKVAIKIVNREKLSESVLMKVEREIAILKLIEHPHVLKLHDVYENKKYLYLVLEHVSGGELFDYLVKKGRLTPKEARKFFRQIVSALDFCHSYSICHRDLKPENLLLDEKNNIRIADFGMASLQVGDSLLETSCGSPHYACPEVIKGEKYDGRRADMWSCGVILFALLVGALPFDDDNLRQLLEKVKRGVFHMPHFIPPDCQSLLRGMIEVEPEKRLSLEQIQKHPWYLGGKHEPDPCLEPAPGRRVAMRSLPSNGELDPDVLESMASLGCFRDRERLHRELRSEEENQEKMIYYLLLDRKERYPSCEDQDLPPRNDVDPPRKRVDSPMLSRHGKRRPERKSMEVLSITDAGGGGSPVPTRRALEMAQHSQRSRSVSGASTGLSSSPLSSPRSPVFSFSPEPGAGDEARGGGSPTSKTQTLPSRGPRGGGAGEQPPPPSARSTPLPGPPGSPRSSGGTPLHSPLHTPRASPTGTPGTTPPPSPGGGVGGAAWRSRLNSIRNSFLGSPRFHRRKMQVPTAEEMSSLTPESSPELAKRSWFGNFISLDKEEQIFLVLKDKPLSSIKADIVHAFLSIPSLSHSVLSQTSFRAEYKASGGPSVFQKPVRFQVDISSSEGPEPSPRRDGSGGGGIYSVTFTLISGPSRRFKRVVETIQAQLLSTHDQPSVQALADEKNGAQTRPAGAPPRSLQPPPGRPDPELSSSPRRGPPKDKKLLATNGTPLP
Sequence of UniProt P54760 (whole entry, looked up): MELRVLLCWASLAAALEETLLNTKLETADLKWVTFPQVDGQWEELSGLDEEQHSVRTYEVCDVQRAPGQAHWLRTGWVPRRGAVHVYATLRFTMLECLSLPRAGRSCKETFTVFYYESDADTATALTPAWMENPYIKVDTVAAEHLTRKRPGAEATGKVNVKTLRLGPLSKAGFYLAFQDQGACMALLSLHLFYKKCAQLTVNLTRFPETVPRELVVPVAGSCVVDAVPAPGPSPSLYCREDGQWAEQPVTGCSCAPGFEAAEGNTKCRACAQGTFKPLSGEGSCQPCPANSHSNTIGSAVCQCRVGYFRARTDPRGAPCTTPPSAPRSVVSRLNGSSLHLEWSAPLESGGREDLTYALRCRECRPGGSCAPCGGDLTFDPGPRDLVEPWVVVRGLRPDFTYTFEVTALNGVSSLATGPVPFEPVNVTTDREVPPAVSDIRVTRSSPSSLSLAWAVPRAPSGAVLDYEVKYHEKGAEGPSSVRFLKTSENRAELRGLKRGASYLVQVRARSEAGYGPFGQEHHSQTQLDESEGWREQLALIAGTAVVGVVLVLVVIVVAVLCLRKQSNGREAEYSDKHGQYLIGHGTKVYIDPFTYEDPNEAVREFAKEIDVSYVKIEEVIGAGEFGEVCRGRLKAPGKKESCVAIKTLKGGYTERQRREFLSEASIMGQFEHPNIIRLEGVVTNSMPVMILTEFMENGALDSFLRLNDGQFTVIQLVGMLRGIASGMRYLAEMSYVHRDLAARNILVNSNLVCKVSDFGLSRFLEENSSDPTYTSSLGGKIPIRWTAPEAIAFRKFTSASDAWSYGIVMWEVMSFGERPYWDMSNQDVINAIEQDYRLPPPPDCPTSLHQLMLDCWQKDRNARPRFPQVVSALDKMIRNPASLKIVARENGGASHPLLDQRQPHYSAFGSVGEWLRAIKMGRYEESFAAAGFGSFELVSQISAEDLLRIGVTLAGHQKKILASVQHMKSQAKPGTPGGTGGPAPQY
Sequence of UniProt O94768 (whole entry, looked up): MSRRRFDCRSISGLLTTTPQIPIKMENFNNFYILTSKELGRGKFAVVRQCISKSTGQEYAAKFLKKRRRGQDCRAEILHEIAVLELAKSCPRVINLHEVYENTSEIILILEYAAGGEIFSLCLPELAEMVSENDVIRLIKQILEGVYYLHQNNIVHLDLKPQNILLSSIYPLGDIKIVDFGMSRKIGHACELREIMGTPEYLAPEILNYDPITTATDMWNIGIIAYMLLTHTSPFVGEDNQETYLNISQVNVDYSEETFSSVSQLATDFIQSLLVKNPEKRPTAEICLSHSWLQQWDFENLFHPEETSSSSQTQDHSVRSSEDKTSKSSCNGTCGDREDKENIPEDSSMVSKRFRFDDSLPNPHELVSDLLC
Sequence of UniProt O00238 (whole entry, looked up): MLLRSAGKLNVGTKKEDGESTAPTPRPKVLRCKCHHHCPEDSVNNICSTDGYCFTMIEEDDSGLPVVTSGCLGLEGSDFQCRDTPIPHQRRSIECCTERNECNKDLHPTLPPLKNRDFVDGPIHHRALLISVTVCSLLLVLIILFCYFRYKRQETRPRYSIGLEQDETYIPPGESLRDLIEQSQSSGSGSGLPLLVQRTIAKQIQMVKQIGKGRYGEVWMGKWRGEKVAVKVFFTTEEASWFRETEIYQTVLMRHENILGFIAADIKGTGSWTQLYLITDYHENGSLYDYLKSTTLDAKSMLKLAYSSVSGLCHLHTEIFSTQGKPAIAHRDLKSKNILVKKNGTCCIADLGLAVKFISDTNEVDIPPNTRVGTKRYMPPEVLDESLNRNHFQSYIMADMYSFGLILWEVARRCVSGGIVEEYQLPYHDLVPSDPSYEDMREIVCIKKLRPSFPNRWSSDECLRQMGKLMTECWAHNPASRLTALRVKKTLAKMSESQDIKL
Sequence of UniProt Q16644 (whole entry, looked up): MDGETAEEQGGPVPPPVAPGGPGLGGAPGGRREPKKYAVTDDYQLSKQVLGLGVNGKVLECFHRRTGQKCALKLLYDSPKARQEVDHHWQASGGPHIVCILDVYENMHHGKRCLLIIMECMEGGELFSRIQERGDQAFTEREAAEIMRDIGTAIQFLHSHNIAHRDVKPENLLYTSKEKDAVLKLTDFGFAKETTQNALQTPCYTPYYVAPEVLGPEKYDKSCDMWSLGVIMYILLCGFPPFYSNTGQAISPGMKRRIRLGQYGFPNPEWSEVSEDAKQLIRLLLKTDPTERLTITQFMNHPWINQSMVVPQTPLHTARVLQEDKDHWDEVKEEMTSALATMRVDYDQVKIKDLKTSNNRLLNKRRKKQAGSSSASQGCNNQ
Sequence of UniProt Q13554 (whole entry, looked up): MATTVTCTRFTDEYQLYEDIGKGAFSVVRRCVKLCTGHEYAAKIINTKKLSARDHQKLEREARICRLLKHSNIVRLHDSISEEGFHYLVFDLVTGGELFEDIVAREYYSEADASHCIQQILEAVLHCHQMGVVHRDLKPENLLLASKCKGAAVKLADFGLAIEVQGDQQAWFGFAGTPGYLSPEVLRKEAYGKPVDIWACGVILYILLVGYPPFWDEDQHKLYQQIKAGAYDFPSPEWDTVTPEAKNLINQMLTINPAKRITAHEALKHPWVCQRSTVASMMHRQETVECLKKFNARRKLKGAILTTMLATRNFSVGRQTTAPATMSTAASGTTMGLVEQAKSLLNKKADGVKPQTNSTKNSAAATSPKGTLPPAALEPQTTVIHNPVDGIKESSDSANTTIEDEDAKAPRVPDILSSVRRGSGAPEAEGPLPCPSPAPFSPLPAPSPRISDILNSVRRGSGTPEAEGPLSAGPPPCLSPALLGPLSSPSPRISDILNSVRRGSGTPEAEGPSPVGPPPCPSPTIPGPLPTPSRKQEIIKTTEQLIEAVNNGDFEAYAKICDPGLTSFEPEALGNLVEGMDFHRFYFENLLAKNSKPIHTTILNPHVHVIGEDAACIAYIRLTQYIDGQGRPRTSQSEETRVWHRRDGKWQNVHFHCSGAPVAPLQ
Sequence of UniProt Q9UK32 (whole entry, looked up): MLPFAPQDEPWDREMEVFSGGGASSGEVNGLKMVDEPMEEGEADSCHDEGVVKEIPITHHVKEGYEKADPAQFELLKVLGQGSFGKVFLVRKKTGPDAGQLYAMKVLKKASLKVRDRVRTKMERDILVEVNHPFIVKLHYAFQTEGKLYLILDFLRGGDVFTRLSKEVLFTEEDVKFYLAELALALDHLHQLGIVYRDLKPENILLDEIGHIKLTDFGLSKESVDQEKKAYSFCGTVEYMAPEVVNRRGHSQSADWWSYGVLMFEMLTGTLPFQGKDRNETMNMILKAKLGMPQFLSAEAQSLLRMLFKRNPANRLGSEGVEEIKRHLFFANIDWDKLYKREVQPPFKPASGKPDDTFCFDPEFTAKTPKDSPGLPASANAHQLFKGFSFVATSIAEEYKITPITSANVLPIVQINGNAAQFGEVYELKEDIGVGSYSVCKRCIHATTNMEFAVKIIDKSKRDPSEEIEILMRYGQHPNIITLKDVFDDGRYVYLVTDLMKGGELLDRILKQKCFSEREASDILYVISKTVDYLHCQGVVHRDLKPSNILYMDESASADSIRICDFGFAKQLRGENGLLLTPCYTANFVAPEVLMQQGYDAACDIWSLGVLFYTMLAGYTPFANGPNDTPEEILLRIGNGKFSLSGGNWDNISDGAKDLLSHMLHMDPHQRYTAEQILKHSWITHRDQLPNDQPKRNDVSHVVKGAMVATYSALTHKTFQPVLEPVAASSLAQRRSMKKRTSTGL
Sequence of UniProt Q52WX2 (whole entry, looked up): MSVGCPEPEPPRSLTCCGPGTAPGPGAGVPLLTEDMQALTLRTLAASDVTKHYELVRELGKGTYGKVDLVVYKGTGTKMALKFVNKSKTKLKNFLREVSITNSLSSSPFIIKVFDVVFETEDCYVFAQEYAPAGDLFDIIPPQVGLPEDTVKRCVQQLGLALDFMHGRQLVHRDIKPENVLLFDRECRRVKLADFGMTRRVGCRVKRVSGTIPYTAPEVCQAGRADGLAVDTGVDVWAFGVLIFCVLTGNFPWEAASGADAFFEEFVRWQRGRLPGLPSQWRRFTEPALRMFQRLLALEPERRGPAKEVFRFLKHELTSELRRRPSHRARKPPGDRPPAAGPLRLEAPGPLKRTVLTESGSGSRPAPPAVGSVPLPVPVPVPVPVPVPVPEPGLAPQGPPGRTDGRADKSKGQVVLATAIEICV

Sample 1
SMILES: CC#CC(=O)Nc1cc2c(Nc3ccc(F)c(Cl)c3)ncnc2cn1
Observed: enzyme activity
Mode: inhibitor
Tested at: 0.5 µM
Reference: control
target | remaining activity [%]
Homeodomain-interacting protein kinase 4 (HIPK4, Homo sapiens, UniProt Q8NE63) | 99.7
Serine/threonine-protein kinase 17A (STK17A, Homo sapiens, UniProt Q9UEE5) | 92.9
Testis-specific serine/threonine-protein kinase 2 (TSSK2, Homo sapiens, UniProt Q96PF2) | 100
Cyclin-dependent kinase 4, with cyclin D3 (CDK4, Homo sapiens, UniProt P11802) | 105
Cyclin-dependent kinase 1, with cyclin B (CDK1, Homo sapiens, UniProt P06493) | 99.5
Cyclin-dependent kinase 6, with cyclin D3 (CDK6, Homo sapiens, UniProt Q00534) | 103
Calcium/calmodulin-dependent protein kinase type II subunit beta (CAMK2B, Homo sapiens, UniProt Q13554) | 99.6
Ephrin type-B receptor 4 (EPHB4, Homo sapiens, UniProt P54760) | 83.4
Tyrosine-protein kinase Srms (SRMS, Homo sapiens, UniProt Q9H3Y6) | 96.1
Ribosomal protein S6 kinase alpha-5 (RPS6KA5, Homo sapiens, UniProt O75582) | 103
Serine/threonine-protein kinase WNK3 (WNK3, Homo sapiens, UniProt Q9BYP7) | 95.1
Tyrosine-protein kinase Blk (BLK, Homo sapiens, UniProt P51451) | 21.3
Phosphorylase b kinase gamma catalytic chain, skeletal muscle/heart isoform (PHKG1, Homo sapiens, UniProt Q16816) | 103
Serine/threonine-protein kinase 16 (STK16, Homo sapiens, UniProt O75716) | 104
Dual specificity tyrosine-phosphorylation-regulated kinase 3 (DYRK3, Homo sapiens, UniProt O43781) | 101
Tyrosine-protein kinase receptor UFO (AXL, Homo sapiens, UniProt P30530) | 100
MAP kinase-activated protein kinase 3 (MAPKAPK3, Homo sapiens, UniProt Q16644) | 105
Homeodomain-interacting protein kinase 2 (HIPK2, Homo sapiens, UniProt Q9H2X6) | 101
Ribosomal protein S6 kinase alpha-6 (RPS6KA6, Homo sapiens, UniProt Q9UK32) | 95.3
Ephrin type-B receptor 1 (EPHB1, Homo sapiens, UniProt P54762) | 92
Ephrin type-A receptor 4 (EPHA4, Homo sapiens, UniProt P54764) | 94.6
Mitogen-activated protein kinase kinase kinase kinase 4 (MAP4K4, Homo sapiens, UniProt O95819) | 110
3-phosphoinositide-dependent protein kinase 1 (PDPK1, Homo sapiens, UniProt O15530) | 99.6

Sample 2
Technique: linear regression of PRP log k'
Compound | logD (1,9-decadiene/water)
Cc1ncsc1-c1ccc(CNC(=O)[C@@H]2C[C@@H](O)CN2C(=O)[C@@H](NC(=O)CCCCCNC(=O)C2CCCCC2)C(C)(C)C)cc1 | -2.1
CCCN1CC(=O)N[C@@H](CC2CCCCC2)C(=O)N(C)[C@@H](C)C(=O)N[C@@H](CC(C)C)C(=O)N(C)[C@H](C(=O)OCC)CSCC(=O)N[C@@H](CC(C)C)C(=O)N(C)[C@@H](C)C(=O)N[C@@H](CC(C)C)C(=O)N2CCC[C@@H]2C1=O | 4.5
CCOC(=O)[C@@H]1CSCC(=O)N[C@@H](CC(C)C)C(=O)N(C)[C@@H](C)C(=O)N[C@@H](CC(C)C)C(=O)N2CCC[C@@H]2C(=O)N(CC)CC(=O)N[C@@H](CC2CCCCC2)C(=O)N(C)[C@@H](C)C(=O)N[C@@H](CC(C)C)C(=O)N1C | 3.86
Cc1ncsc1-c1ccc(CNC(=O)[C@@H]2C[C@@H](O)CN2C(=O)[C@@H](NC(=O)CCCCCOC(=O)CC23C[C@H]4C[C@@H](C2)C[C@@H](C3)C4)C(C)(C)C)cc1 | 1.85
COCC(=O)NCCCCCC(=O)N[C@H](C(=O)N1C[C@H](O)C[C@H]1C(=O)NCc1ccc(-c2scnc2C)cc1)C(C)(C)C | -3.27
Cc1ncsc1-c1ccc(CNC(=O)[C@@H]2C[C@@H](O)CN2C(=O)[C@@H](NC(=O)CCCCCOC(=O)CC(c2ccccc2)c2ccccc2)C(C)(C)C)cc1 | 0.955

Sample 3
SMILES: C[C@@H](c1cccc(C#N)c1)n1cc(Cl)cc(C(N)=O)c1=N
Tested at: 1 µM
target | assay | remaining binding [%]
Serine/threonine-protein kinase BRSK1 (BRSK1, Homo sapiens, UniProt Q8TDC3) | cell-free assay, competition with immobilised ligand | 93
Mitogen-activated protein kinase 15 (MAPK15, Homo sapiens, UniProt Q8TD08) | cell-free assay, competition with immobilised ligand | 100
Serine/threonine-protein kinase 35 (STK35, Homo sapiens, UniProt Q8TDR2) | cell-free assay, competition with immobilised ligand | 100
Proto-oncogene tyrosine-protein kinase receptor Ret (RET, Homo sapiens, UniProt P07949, M918T) | cell-free assay, competition with immobilised ligand | 100
Mitogen-activated protein kinase 8 (MAPK8, Homo sapiens, UniProt P45983) | cell-free assay, competition with immobilised ligand | 75
Cyclin-dependent kinase 19 (CDK19, Homo sapiens, UniProt Q9BWU1) | competition binding | 100
Ephrin type-A receptor 6 (EPHA6, Homo sapiens, UniProt Q9UF33) | cell-free assay, competition with immobilised ligand | 91
Aurora kinase A (AURKA, Homo sapiens, UniProt O14965) | cell-free assay, competition with immobilised ligand | 96
Serine/threonine-protein kinase ICK (CILK1, Homo sapiens, UniProt Q9UPZ9) | binding, competition with immobilised ligand | 81
Serine/threonine-protein kinase 17B (STK17B, Homo sapiens, UniProt O94768) | cell-free assay, competition with immobilised ligand | 72
Serine/threonine-protein kinase PRP4 homolog (PRPF4B, Homo sapiens, UniProt Q13523) | cell-free assay, competition with immobilised ligand | 100
Tyrosine-protein kinase SYK (SYK, Homo sapiens, UniProt P43405) | cell-free assay, competition with immobilised ligand | 96
Bone morphogenetic protein receptor type-1B (BMPR1B, Homo sapiens, UniProt O00238) | cell-free assay, competition with immobilised ligand | 89
Serine/threonine-protein kinase SBK1 (SBK1, Homo sapiens, UniProt Q52WX2) | cell-free assay, competition with immobilised ligand | 99
Inhibitor of nuclear factor kappa-B kinase subunit epsilon (IKBKE, Homo sapiens, UniProt Q14164) | cell-free assay, competition with immobilised ligand | 56

Sample 4
Target: Diamine acetyltransferase 1 (Homo sapiens, UniProt P21673)
Mode: inhibitor
Tested at: 10 µM
Reference: control
Target sequence (P21673 1-171): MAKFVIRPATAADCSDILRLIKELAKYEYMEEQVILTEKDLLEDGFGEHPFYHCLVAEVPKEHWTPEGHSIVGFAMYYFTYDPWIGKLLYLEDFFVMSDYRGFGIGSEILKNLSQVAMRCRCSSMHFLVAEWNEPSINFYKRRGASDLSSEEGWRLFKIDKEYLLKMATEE
Compound | remaining activity [%]
CCCCCCCCCCCCCCCCCCCCCCC(=O)OC | 90.5
COc1cc(O)cc2c1C(=O)C[C@@H](c1ccccc1)O2 | 98.5
CCCCCCCCCCCCCCCCCCCC(=O)O | 95.9
COc1cc(O)c2c(=O)c(OC)c(-c3ccc(O)cc3)oc2c1 | 93.8
CC(C)=CCc1c(O)ccc(C(=O)/C=C/c2ccc(O)cc2)c1O | 90.8
CO[C@@H]1[C@H](O)[C@@H](CO)O[C@H]1n1cnc2c(N)ncnc21 | 99.1
COc1ccc(CC(=O)O)cc1OC | 79.5

Excerpt of the above (sample 1):
target | remaining activity [%]
Cyclin-dependent kinase 1, with cyclin B (CDK1, Homo sapiens, UniProt P06493) | 99.5
Cyclin-dependent kinase 6, with cyclin D3 (CDK6, Homo sapiens, UniProt Q00534) | 103
Calcium/calmodulin-dependent protein kinase type II subunit beta (CAMK2B, Homo sapiens, UniProt Q13554) | 99.6
Ephrin type-B receptor 4 (EPHB4, Homo sapiens, UniProt P54760) | 83.4
